Results from different studies.
Parts stem from different laboratories: compare values within a part only. Positions count from the first letter of the parent shown.

Study 1 — technique: universal PBM; form: double-stranded DNA, one strand shown; sample: in vitro; concentration: 600 nM; direction: higher = stronger binding
Target: Sal-like protein 4, full length isoform A (SALL4, Homo sapiens, UniProt Q9UJQ4, residues 1-1053)
Sequence of UniProt Q9UJQ4 (whole entry, looked up): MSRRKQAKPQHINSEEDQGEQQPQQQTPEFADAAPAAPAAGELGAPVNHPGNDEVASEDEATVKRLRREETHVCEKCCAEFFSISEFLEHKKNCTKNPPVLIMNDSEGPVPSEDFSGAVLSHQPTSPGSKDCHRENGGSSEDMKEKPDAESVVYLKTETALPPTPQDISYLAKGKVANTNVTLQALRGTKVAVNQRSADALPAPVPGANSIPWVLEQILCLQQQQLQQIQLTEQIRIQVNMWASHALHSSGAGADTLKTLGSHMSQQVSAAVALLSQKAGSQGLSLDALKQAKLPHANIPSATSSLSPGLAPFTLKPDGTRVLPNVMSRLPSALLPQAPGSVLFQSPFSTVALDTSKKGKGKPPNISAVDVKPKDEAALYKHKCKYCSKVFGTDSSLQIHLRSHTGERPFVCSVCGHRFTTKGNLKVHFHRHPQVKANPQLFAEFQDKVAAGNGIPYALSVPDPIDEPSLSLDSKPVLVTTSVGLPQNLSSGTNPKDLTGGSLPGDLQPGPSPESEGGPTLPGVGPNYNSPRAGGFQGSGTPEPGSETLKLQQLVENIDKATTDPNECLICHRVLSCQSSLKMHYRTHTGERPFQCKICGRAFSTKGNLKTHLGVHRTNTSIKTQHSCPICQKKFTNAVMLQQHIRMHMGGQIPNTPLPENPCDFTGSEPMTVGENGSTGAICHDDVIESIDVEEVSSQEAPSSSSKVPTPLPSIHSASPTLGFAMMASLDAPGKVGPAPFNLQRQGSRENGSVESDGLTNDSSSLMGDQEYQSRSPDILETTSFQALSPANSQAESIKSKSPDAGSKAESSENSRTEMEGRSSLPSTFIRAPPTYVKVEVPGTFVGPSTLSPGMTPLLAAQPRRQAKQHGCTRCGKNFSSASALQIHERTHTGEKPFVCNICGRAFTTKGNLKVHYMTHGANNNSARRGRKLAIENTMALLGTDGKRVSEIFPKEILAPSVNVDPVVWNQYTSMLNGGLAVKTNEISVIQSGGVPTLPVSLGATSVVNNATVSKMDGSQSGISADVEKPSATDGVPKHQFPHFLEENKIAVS
Setting: 8-mer, flanks averaged, mean of replicates
| Strand | E-score |
| --- | --- |
| CGGGGTTA | -0.142 |
| CCAGTCTC | -0.288 |
| CCATAGGA | 0.0386 |
| AACGTAGG | -0.136 |
| AAGCGTGA | -0.0719 |
| AATTAACT | 0.224 |
| TAAGAAAA | 0.243 |
| ACCTGATA | 0.134 |
| ACAATAAA | 0.345 |
| CGGTGTTC | -0.164 |
| CGTGAACG | -0.288 |
| ACCACGGG | -0.298 |
| CCGGAAAC | -0.149 |
| TCCCCAGA | -0.16 |
| CGCCGTAG | -0.224 |
| AACGGAAG | 0.00172 |

Study 2 — technique: Sort-seq; item: YFP reporter; sample: E. coli; setting: PhoQ-PhoP variant library; with: 10 µM Mg2+; relative to: high Mg2+ state; direction: higher = stronger signaling
Molecule: PhoQ, residues 284 288 289 292 302 303 NLGVHL
| target | fold induction |
| --- | --- |
| PhoP, residues 12 14 15 18 19 HHYTI (Escherichia coli, UniProt P23836) | 14.8 |
| PhoP, residues 12 14 15 18 19 AYFRS (Escherichia coli, UniProt P23836) | 12.1 |
| PhoP, residues 12 14 15 18 19 SFCSL (Escherichia coli, UniProt P23836) | 9.54 |

Study 3 — target: CCNE1, cyclin fold, Cln2 fusion (human); technique: yeast growth competition, sequencing; sample: yeast; setting: strong parent motif; relative to: not given; direction: higher = stronger binding
Parent: RBL2 docking peptide (human); STTRRRLFVENDS; partner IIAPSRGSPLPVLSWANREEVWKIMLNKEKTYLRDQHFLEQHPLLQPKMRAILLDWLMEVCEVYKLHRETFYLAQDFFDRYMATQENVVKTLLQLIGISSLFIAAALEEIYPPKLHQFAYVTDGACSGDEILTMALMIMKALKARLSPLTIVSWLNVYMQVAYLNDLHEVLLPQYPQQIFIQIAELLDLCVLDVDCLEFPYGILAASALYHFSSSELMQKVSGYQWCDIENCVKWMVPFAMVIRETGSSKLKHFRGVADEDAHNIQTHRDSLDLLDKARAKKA
| Change | normalised enrichment score |
| --- | --- |
| D12V | 4.12 |
| T3R | 0.677 |
| S13N | 4.85 |
| T2N | 6.32 |
| T2Q | 6.26 |
| S13L | 5.81 |
| R6A | 2.05 |
| S13F | 6.32 |
| S13P | 5.88 |
| R5D | -0.237 |
| R5H | 0.648 |
| E10S | 3.97 |
| D12H | 3.94 |
| T2M | 5.66 |
| F8L | 0.583 |

Study 4 — technique: RNA Bind-n-Seq; form: RNA; sample: in vitro; concentration: 200 nM; setting: whole 134-nt RNA, ends assumed; with: 150 mM LiCl; relative to: input library; direction: higher = stronger binding; library: 7-deaza-guanosine replaces G
Target: Fragile X messenger ribonucleoprotein 1, C-terminal low-complexity region (Fmr1, Mus musculus, UniProt P35922)
| Strand | log2 enrichment |
| --- | --- |
| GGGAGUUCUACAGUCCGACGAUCCCUCACCACUCCUUUCUCUUUCAUUCAGUUCCGCUCAGUGGACGAGACUACCCAGGCUAUGGCCUUUGAUGGCAUCAUCUUCCAGGGCCAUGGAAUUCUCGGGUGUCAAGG | 1.05 |
| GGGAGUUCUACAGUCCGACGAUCUCAAGUCCUGUGCUACACAUCGUAUGUACCGAAUCGGGAAAGGGAGGGAAAGGGAAAGUAUUAUGUUACGCCGUUCGGAUCUGCACUUCCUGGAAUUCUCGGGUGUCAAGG | -1.28 |
| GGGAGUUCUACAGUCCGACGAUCUCCUGUGCUACACAUCGUAUGUACCGAAUCGGCCCCCCCGGCCCCCCCGGCCCCCCCGGGAAAGUAUUAUGUUACGCCGUUCGGAUCUGCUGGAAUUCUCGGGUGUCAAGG | 1.07 |
| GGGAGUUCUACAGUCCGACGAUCCCUCAAGUCCUGUGCUACACAUCGUAUGUACCGAAUCGGGGAGGAGGGAGGGGAAAGUAUUAUGUUACGCCGUUCGGAUCUGCACUUCCAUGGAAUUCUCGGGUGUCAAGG | -1.12 |
| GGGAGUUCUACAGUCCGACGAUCUGUGCUACACAUCGUAUGUACCGAAUCGGGGAAAAAAAGGGGAAAAAAAGGGAAAAAAAGGGGAAAGUAUUAUGUUACGCCGUUCGGAUCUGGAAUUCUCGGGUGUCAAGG | 1.27 |
| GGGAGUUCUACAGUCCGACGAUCCCUCAAGUCCUGUGCUACACAUCGUAUGUACCGAAUCGGCGGGGCGGGCGGGAAAGUAUUAUGUUACGCCGUUCGGAUCUGCACUUCCAGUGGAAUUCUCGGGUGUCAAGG | -0.325 |
| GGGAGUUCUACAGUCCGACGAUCGUCCUGUGCUACACAUCGUAUGUACCGAAUCGGGGUUUUUUUGGGGUUUGGGGAGGGGAAAGUAUUAUGUUACGCCGUUCGGAUCUGCACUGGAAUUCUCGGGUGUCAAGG | -0.544 |
| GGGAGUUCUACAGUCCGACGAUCAAGUCCUGUGCUACACAUCGUAUGUACCGAAUCGGGAAAGGGGAAAGGGGAAAGGGGAAAGUAUUAUGUUACGCCGUUCGGAUCUGCACUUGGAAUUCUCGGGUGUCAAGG | 1.17 |
| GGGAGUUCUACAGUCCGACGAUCACCAUGCAGGUGGGCAUCUUUGGGAAGUGGGGCAAGGGGGGGAUAGGGAGGGGGGUAACACUUUGGGAACAGGUGGUCCCAGAUCGUUUCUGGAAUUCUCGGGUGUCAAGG | 1.21 |
| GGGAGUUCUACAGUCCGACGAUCUAACUUUAGAGGAGGAUCUGAUGGAUAUGGCAGUGGACGUGGAUUUGGGGAUGGCUAUAAUGGGUAUGGAGGAGUACCUGGAGGUGGCAAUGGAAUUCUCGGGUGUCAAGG | -0.745 |
| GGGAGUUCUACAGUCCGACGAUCCAAGUCCUGUGCUACACAUCGUAUGUACCGAAUCGGGUUUGGGUUUGGGGUUUGGAAAGUAUUAUGUUACGCCGUUCGGAUCUGCACUUCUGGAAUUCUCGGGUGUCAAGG | -1.5 |

A few entries again (study 3):
| Change | normalised enrichment score |
| --- | --- |
| D12V | 4.12 |
| T3R | 0.677 |
| S13N | 4.85 |
| T2N | 6.32 |
| T2Q | 6.26 |
